Measurements gathered from unrelated publications.
Each numbered part is a random draw from the data of one study; scales do not carry over between parts. Positions count from the first letter of the parent shown.

Block 1
Target: CCNB3, cyclin fold, Cln2 fusion (human)
Technique: yeast growth competition, sequencing
Sample: yeast
Setting: weak parent motif
Relative to: not given
Reading: higher = stronger binding
Parent: CDC25A docking peptide (human); PPHRRRLLFACSP; partner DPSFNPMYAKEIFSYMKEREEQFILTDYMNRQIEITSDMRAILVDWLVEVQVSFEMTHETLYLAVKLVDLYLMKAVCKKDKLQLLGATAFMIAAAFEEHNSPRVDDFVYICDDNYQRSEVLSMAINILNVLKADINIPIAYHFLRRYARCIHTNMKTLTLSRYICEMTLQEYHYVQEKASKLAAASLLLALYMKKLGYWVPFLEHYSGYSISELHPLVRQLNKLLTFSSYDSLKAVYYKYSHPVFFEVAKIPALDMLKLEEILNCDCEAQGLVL
Change | normalised enrichment score
S12F | 0.153
L8Y | 0.319
R4Q | 0.409
A10K | 0.00593
R6Q | 0.337
L8T | 0.214
P1Y | 0.646
H3R | 0.423
C11Q | 0.563
C11N | -0.0665
C11F | 0.301
P13D | 0.793
P1R | 0.378
R6H | 0.196
H3K | -0.385
C11T | -0.27
L7W | 0.409
F9E | 0.295
R6N | 0.45
R4K | 0.359
C11Y | 0.0723
A10L | 0.0783
H3I | 0.458
A10V | 0.0713
S12L | 0.495

Block 2
Target: Ras GTPase-activating protein-binding protein 1, RRM domain (G3BP1, Homo sapiens, UniProt Q13283)
Chain of UniProt Q13283 (whole entry, looked up): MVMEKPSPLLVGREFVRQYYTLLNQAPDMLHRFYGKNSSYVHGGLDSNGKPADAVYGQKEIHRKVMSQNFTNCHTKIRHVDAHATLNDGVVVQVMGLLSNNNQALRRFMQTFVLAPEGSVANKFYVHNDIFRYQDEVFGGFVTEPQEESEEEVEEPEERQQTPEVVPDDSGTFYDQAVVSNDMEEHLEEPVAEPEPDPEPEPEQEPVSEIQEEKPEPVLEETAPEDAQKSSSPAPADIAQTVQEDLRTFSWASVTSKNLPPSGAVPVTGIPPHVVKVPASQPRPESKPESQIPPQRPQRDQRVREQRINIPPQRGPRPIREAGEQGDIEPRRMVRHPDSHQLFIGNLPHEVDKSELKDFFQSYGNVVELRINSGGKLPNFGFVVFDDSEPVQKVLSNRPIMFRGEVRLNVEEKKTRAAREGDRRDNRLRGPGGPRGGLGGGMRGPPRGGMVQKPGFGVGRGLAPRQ
Technique: RNA Bind-n-Seq
Form: RNA
Sample: in vitro
Concentration: 1 µM
Setting: whole 134-nt RNA, ends assumed
Together with: 150 mM KCl
Relative to: input library
Reading: higher = stronger binding
Constant ends, left off below: GGGAGUUCUACAGUCCGACGAUC … UGGAAUUCUCGGGUGUCAAGG
Sequence | log2 enrichment
GUCCUGUGCUACACAUCGUAUGUACCGAAUCGGCCCCCGGGCCCCCGGGGCCCCCGGGAAAGUAUUAUGUUACGCCGUUCGGAUCUGCAC | -0.348
UCCUGUGCUACACAUCGUAUGUACCGAAUCGGGUUUUUUUGGUUUUUUUGGUUUUUUUGGAAAGUAUUAUGUUACGCCGUUCGGAUCUGC | -0.0781
UCCUCAAGUCCUGUGCUACACAUCGUAUGUACCGAAUCGGUGGAAAGGAGGAAAGUAUUAUGUUACGCCGUUCGGAUCUGCACUUCCAGC | -0.159
UGCCGAUUCGGAAGUCCUUGAGGAGCGUCAGAAGCGGCUUCCCUACGUCCCAGAGCCCUAUUACCCGGAAUCUGGAUGGGACCGCCUCCG | -0.271
UGGCCGGUGGCCGUGAGAACACGCUGUGUGGCUGAAAAGUGAAGGCAAGAGCUGAUUUGGCCUCUGUGCUCCCCUCCGCAAGGGGAUCGU | -0.363
UGGCCCUGGUGGCAUGCGGGGAGGAAGAGGUGGCCUCAUGGAUCAUGGUGGUCCCGGUGGAAUGUUCAGAGGUGGCCGUGGUGGAGACAG | 1.33
UGGCCCUGGUGGCAUGCGGGGAGGAAGAGGUGGCCUCAUGGAUCGUGGUGGUCCCGGUGGAAUGUUCAAAGGUGGCCGUGGUGGAGACAG | 2.08
ACCAUGCAGGUGGGCAUCUUUGGGAAGUGGGGCAAGGGGGGGAUAGGGAGGGGGGUAACACUUUGGGAACAGGUGGUCCAAAGUCGUUUC | -0.745
CUCAAGUCCUGUGCUACACAUCGUAUGUACCGAAUCGGGUUUGGGAGGGAGGGAAAGUAUUAUGUUACGCCGUUCGGAUCUGCACUUCCA | 0.675
CAAGUCCUGUGCUACACAUCGUAUGUACCGAAUCGGAAAGGGGAAAGGGAAAGGGGAAAGUAUUAUGUUACGCCGUUCGGAUCUGCACUU | 0.115
UGGGAGGUGGAUUUUGUAUAUUUUUUUAGCUCAUUUCCAGGGGUGGGAAUUUUUUUUUAAUAUGUGUCAUGAAUAAAGUUGUUUUUGAAA | 2.03
CACAGACAACACGCACCCACACACACACAGAGGGAAGGGGUUGGGAUGGGGACAGGGUGCACAGCAGGGCGGGGUAGGACCCCAGCCCCU | -0.0233
AAGUCCUGUGCUACACAUCGUAUGUACCGAAUCGGCCCCCGGGCCCCCGGCCCCCGGAAAGUAUUAUGUUACGCCGUUCGGAUCUGCACU | -0.271
CCUCAAGUCCUGUGCUACACAUCGUAUGUACCGAAUCGGGCGGGGCGGCGGGGAAAGUAUUAUGUUACGCCGUUCGGAUCUGCACUUCCA | -0.0482

Block 3
Target: RNA binding protein fox-1 homolog 2, RRM domain, GST-SBP tag (RBFOX2, Homo sapiens, UniProt O43251-10, residues 100-194)
Technique: RNA Bind-n-Seq
Form: RNA
Sample: in vitro
Concentration: 365 nM
Setting: natural RNA segment, single round, ends assumed
Relative to: no-protein control
Reading: higher = stronger binding
Constant ends, left off below: GGGAGUUCUACAGUCCGACGAUC … UGGAAUUCUCGGGUGCCAA
Target sequence (chain): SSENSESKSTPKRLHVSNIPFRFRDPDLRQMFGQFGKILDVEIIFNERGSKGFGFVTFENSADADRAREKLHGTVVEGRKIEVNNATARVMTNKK
Sequence | RBNS enrichment (R)
UGUGACUUCUGGGAAGGCGCUCCCUCAUCUGGGCCAAAGGAAGGAGGACGAAGCCCUCCUCAGCUGGCCUGUGUUUGGGGCAUGAAUCUCUCCUCUCCUCCUUGUCUGGC | 0.228
AUAAUCUUGGUUAUAAGGGAGUUAAAACAAUGCUGUAAUAAAUAAAGUGCUUCAUGUGAUCAAAAUCAAAUUUGUUAUCCUCUCUCAAAAGCCUGCUCUCCCUCUUACCU | 0.527
GACAUGUCAACAAGAUACAUUCAUUUCUCCCGGAAUGUGUAUUGUUUUUAUUUUACAAAACAGAGAAACAACAAAAGGCUUGGAACUCCUUCAUUCUACGUGGAAUACUA | 0.663
CAACUCCAGGUCAAAUCUGGAGCUCAAAUCCCAGUGCUCCCUCCCCAGGAGUGGGGCCCCAACUCUUCCAAGAUACCAGCAUUCCUCAAGUCCUCCCAAAACUUCCUACC | 0.314
AGCAAGACUCAAAGAGGCAGAGGUUUUGUUCUCAAAUAUUUUUUAAUAAAUAGACGAAACCACGAAACCACUAGACUGAUGGCAGCAAACUAAGGUCAGAUGAGAGGGGA | 0.371
UGAGUCUGUCCAGAGUGCUUGCUACCGUGUUCGGAGUCUCGCUGCCUCCCUCCCGCGGGAGGUUUCUCCUCUUUUUGAAAAUUCCGUCUGUGGGAUUUUUAGACAUUUUU | 0.679
GCUAGCUACGAAUUUUUAAAGAAAUACUGUUUAAGUUAGAGAUGGUUUAAAGAAAAAUAGUUCACCAAAAUUUAGUAUUAUAUAGUCUGUAUUGUUUGGUUUCAAGUCUC | 0.943
GCUGCUACACUACAGGACACCCAGCAUCGGCUUUGACUGCAGACUGUUCACCCACACGAGCCCUGUGCUUUUGGUGUAAAUAAUGUACAAUUUGUGGAUGUCAUUGAAUC | 0.404
UAUGGAGAUUACCAGGCAGAUGAUACCGAAAUGCUUAAAGGGGCUGUGGCUGAGGCUGUAGCAUCUCUGCUGGAGGUGAGACACUCUGGGAACUGAUUUGACCUCGAAUG | 0.445
AAGUUGUAGCCCAGCUGGAGGACAGGCCUUUGCUCCCUGGGCAGGUGCCCACUGGUGUCCCAUGGAAUCCACUCGGGUUGAAAUGUGGAUCUCUCCAUGGGACUCUUUAA | 1.49
UGGUGGACGAUGAGGGCUUCGGUGAUGGCUUCACCCGAGAGGAGCCCGCCACGGUGGAUGUAUGUGCGCUCACCUGAGCUUGCUUGGGCCCAGUGUGGGGGUGGCAGGCA | 11
ACAGCCCCAGGGGCCUUGAGGGUCUGAGGUCCCAGCCCUGUUGCCAAGUGACCUUGUCCCCAGCUCCCUCCUCCCAGGCUGGUGUGAGUGUGCGUGCGUUUGUGCCGAGC | 1.6

Block 4
Target: ABI1, truncated, D143A, DHFR fusion (Arabidopsis thaliana)
Technique: DHFR PCA, deep sequencing
Sample: yeast
Setting: methotrexate growth selection, single substitutions
Together with: (+)-ABA 0.0091 µM
Relative to: wild-type fitted maximum
Reading: higher = stronger binding
Parent: PYL1, truncated, DHFR fusion (Arabidopsis thaliana); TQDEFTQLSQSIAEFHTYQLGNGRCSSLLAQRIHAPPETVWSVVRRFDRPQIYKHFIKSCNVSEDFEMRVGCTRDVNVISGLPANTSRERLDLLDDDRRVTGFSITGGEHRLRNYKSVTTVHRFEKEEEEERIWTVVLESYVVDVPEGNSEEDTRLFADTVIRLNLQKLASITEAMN; partner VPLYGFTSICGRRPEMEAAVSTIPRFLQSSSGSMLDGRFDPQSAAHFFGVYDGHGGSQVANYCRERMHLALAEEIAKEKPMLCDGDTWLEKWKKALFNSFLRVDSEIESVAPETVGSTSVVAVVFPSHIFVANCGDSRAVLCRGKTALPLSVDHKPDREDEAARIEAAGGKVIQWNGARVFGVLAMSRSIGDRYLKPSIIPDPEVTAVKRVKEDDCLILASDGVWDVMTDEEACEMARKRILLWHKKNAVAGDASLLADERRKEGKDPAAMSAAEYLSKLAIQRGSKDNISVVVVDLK
Change | relative binding score [%]
R74H | -2.96
Q10I | -0.698
G148L | -1.99
M176V | 7.62
L94T | -6.61
T135Y | -13.9
L29G | -0.0468
L138V | 4.32
V143R | -2.93
V62D | 6.7
K168T | 0.353
N165I | 0.379
K126C | 49.7
F5D | 5.35
L164C | 5.81
E129S | 41.7
S59L | 0.463
E64V | 7.31
Q51H | 12.3
Y53T | 3.61
H110I | -0.303

Some of these lines once more (block 4):
Change | relative binding score [%]
L164C | 5.81
L138V | 4.32
F5D | 5.35
Q10I | -0.698
N165I | 0.379
R74H | -2.96
G148L | -1.99
Y53T | 3.61
E64V | 7.31
